Results collected from several papers.
Every numbered part comes from another study and shows a few of its results, in no order. Positions count from the first letter of the parent shown.

Sample 1
Target: CCNE2, cyclin fold, Cln2 fusion (human)
Method: yeast growth competition, sequencing
Sample: yeast
Notes: strong parent motif
Reference: not given
Reading: higher = stronger binding
Starting sequence: PKN2 docking peptide (human); VSAVRKLDFSDTM
Variant | normalised enrichment score
VSIVRKLDFSDTM [A3I] | 3.42
VDAVRKLDFSDTM [S2D] | 2.8
VSAVRKLDFHDTM [S10H] | 3.52
VSAVRKLDFSQTM [D11Q] | 4.81
VSAKRKLDFSDTM [V4K] | 4.6
VSAVRKLDASDTM [F9A] | -0.0994
VSAVRKLDFCDTM [S10C] | 3.93
VSAVRRLDFSDTM [K6R] | 5.46
VSAVRKLDYSDTM [F9Y] | 0.631
VSAVIKLDFSDTM [R5I] | 0.335
VSAVRKTDFSDTM [L7T] | 0.178
VSAVRKIDFSDTM [L7I] | 2.77
VSAVRKLNFSDTM [D8N] | 4.52
VSAVRKLPFSDTM [D8P] | 0.892
VSAVRKLDFSDQM [T12Q] | 4.37
VSAARKLDFSDTM [V4A] | 2.7
VSAVRKLAFSDTM [D8A] | 2.02
VSAVRKLDFSDIM [T12I] | 5.11
VSAVSKLDFSDTM [R5S] | -0.0828
VSAIRKLDFSDTM [V4I] | 3.42
VSAVRKLDFSSTM [D11S] | 5.19
VSAVPKLDFSDTM [R5P] | 0.0996
VSAFRKLDFSDTM [V4F] | 2.03
VSAVRKLDFSRTM [D11R] | 5.21
VSARRKLDFSDTM [V4R] | 5.19

Sample 2
Target: Ras GTPase-activating protein-binding protein 1, RRM domain (G3BP1, Homo sapiens, UniProt Q13283)
Sequence of UniProt Q13283 (whole entry, looked up): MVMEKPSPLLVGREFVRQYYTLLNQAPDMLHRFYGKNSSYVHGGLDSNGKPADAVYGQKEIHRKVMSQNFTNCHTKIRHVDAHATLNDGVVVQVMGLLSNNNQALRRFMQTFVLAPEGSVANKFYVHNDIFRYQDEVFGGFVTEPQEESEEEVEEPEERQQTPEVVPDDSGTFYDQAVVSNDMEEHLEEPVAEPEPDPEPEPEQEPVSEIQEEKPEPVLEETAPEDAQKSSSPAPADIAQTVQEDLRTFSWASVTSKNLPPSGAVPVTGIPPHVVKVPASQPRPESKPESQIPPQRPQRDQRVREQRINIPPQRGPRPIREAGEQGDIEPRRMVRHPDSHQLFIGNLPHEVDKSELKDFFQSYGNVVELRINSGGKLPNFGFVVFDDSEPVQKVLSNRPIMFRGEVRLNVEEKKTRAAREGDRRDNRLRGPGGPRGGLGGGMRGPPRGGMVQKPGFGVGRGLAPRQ
Method: RNA Bind-n-Seq
Molecule type: RNA
Sample: in vitro
Concentration: 1 µM
Notes: whole 134-nt RNA, ends assumed
Added: 150 mM KCl
Reference: input library
Reading: higher = stronger binding
All sequences stand within: GGGAGUUCUACAGUCCGACGAUC … UGGAAUUCUCGGGUGUCAAGG
Strand | log2 enrichment
UGGCCCUGGUGGCAUGCGGGGAGGAAGAGGUGGCCUCAUGGAUCGUGGUGGUCCCUGUGGAAUGUUCAGAGGUGGCCGUGGUGGAGACAG | 0.56
ACCAUGCAGGUGGGCAUCUUUGGGAAGAGGGGCAAGGGGGGGAUAGGGAGGGGGGUAACACUUUGGGAACAGGUGGUCCCAGGUCGUUUC | -0.625
CAAGUCCUGUGCUACACAUCGUAUGUACCGAAUCGGGGUUUGGUUUGGGUUUGGGAAAGUAUUAUGUUACGCCGUUCGGAUCUGCACUUC | -0.323
AGUCCUGUGCUACACAUCGUAUGUACCGAAUCAAAUUUAAAUUUAAACCCCCCCAAAAAAGUAUUAUGUUACGCCGUUCGGAUCUGCACU | -0.477
CAAGUCCUGUGCUACACAUCGUAUGUACCGAAUCGGUUUGGGUUUGGGGUUUGGGGAAAGUAUUAUGUUACGCCGUUCGGAUCUGCACUU | -0.293
AAGACAUUUGUUGUAUUUAUGGUUGUAACUGUACAUGCUUAUCAGGAUGAGACUGAAAGAAGGUAGGGCAAAAAUGGUUGAAUCUAUUUU | -0.277
CAAGUCCUGUGCUACACAUCGUAUGUACCGAAUCGGGUUUGGGAAAGGGAAAGGGAAAGUAUUAUGUUACGCCGUUCGGAUCUGCACUUC | 0.664
UGUGCUACACAUCGUAUGUACCGAAUCGGGGCCCCCCCGGGGCCCCCCCGGGCCCCCCCGGGGAAAGUAUUAUGUUACGCCGUUCGGAUC | -0.814
UAACUUUAGAGGAGGAUCUGAUGGAUACGGCAGUGGACGUGGAUUUGGGGAUGGCUAUAAUGGGUAUGGAGGAGGACCUGGAGGUGGCAA | -0.728
AGUCCUGUGCUACACAUCGUAUGUACCGAAUCGGGGAGGGGUUUUUGGGGAAAGGGGAAAGUAUUAUGUUACGCCGUUCGGAUCUGCACU | 1.04
CAAGUCCUGUGCUACACAUCGUAUGUACCGAAUCGGGGUGGGGAAAGGGGAGGGGAAAGUAUUAUGUUACGCCGUUCGGAUCUGCACUUC | 1.17
CCUCAAGUCCUGUGCUACACAUCGUAUGUACCGAAUCGGAGGGAGGGAGGGGAAAGUAUUAUGUUACGCCGUUCGGAUCUGCACUUCCAG | 0.0819
GUCCUGUGCUACACAUCGUAUGUACCGAAUCGGGUUUUUGGGUUUGGGAAAAAAAGGGAAAGUAUUAUGUUACGCCGUUCGGAUCUGCAC | -0.146
GUCCUGUGCUACACAUCGUAUGUACCGAAUCGGGAAAAAAAGGGUGGGAAAAAAAGGGAAAGUAUUAUGUUACGCCGUUCGGAUCUGCAC | 0.268

Sample 3
Target: RING finger protein unkempt homolog, zinc fingers 1-6, GST-SBP tag (UNK, Homo sapiens, UniProt Q9C0B0, residues 30-357)
Method: RNA Bind-n-Seq
Molecule type: RNA
Sample: in vitro
Concentration: not given
Notes: RNA with constant flanks, ends assumed
Reference: input RNA pool
Reading: higher = stronger binding
All sequences stand within: GGGAGUUCUACAGUCCGACGAUC … CAACAGAGGAUUGAGCAUCA
Construct (chain): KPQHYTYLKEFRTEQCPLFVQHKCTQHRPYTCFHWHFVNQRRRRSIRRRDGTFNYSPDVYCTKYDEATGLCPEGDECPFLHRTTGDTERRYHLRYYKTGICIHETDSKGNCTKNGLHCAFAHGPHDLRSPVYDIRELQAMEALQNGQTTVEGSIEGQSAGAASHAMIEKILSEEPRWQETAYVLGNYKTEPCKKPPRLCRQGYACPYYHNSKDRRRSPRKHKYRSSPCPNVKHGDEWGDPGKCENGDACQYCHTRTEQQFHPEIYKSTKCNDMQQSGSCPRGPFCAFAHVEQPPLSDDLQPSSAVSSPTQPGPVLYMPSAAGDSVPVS
Strand | bound/input enrichment
AGUAGCACUUUUGUUGUACAUUGUGUUCCAAUAAGUAUAGUAUGGAACACUUUCUCAUUUUCCGUUCCCAUAAUAUGCCAGUUUUUGCUUUCCUAGUGUUCUGUGAGUAUUAGGAUUUGG | 1.34 ratio
UCUGGGCAGAGUGAGGAGUCCCCUCGGAAACGACGGAAGGCAACGGAAGCCAUAGACUCUCUCCGGAAAUCCAAACGACUUCGGAAUAGGAAGUAGAUUGGAAUAUGGCUCUAGCUCCAG | 0.276 ratio
AGUGACUUAUCUGAGAAUGUAGAGUCAGUGGUUAAUGAAGAAAAAAUAACAGAGAGUUCCCCCGCCGAAAUUACUGAACAUAAAGAUUUUACACUAAAAACAGAGGAGCUUAUAGAGAGC | 0.676 ratio
AACAAAGAUUAUCACAAGGAUGUUCGUAAUAACUUUUUGCCACCAAUUAUUGCACGUUUCAUCCGAGUGAACCCUGUCCAGUGGCAACAGAAAAUUGCCAUGAAAGUGGAACUGCUCGGA | 0.0874 ratio
UAGUGAAAUUCUCUAGCACUGUAUUUAGAUUCUGGAUUUUUAUAAUUCAUGCUUAAUGUAUCCGACAUUUUUAGCCCAUAAUUAAAACAUUGUUGCUUUUACACAGGUGUAGUUUGGUGC | 23.7 ratio
CAGAUUUUGAAAACGUUGAUGGAAGAAACAACACGUCAGCAGAGCAUGAUACGGGAGCUCACCGAGACCAACCAGCAACUGAAAAGUGAACUUCAGCUAGAACAGAACCGAGCGGCACAC | 0.338 ratio
AUUCCAUAUUUAUUACGACUGAGACAAAUUAAGGAUGAAACUCUUCAGGCUGCAGUCCGAGAAAUUUUGGCCCUAAUUGGCUAUGUGGAUCCAGUGAAAGGGAGAGGAAUCCGAAUUCUC | 0.268 ratio
CCUGGGGCUUUGGUGCAGUGCUUGAGGCUACCAAAGUUUGCAGAGGAGGAGACUCUUUGUACCGACUCUAUAACUCCUUGUGCUGAUGGAAUUCAUUUGUUGGUAGGACUGCGGACAUGC | 0.154 ratio
UUCAGGAUGCUGGUGUCACGUUUUGCCAGUCGGUUUCGGAAAGACUCGAGCACUGAGAUGGUCCGAACCAACUUGGCUCAUAGAAAGUCUCUGUCUCAGAAGGAGAACAGACACAGGGUG | 0.143 ratio
AUCAAGCAGCUGUUGCAAUCUGCCCACAAAGAAUCCAGCUUUGACAUUAUUUUGUCAGGUUCCGUCCCAGGAAGCACCACUCUGCACAGUGCUGAGAUUUUGGCUGAAAUCGCCCGGAUC | 0.129 ratio
GUGAAGACAUCACUUCCCCUCGGAGUCCCCUGAGUAUUUACAAGCCUCAGCAGGGCAGCACCGCUAUGUUCUGUUUGCCGUUUGUUGGUUUGCUUCUGUAUAGGUCUCUUUCCUUCCUCC | 0.324 ratio

Sample 4
Target: RNA binding protein fox-1 homolog 2, RRM domain, GST-SBP tag (RBFOX2, Homo sapiens, UniProt O43251-10, residues 100-194)
Method: RNA Bind-n-Seq
Molecule type: RNA
Sample: in vitro
Concentration: 365 nM
Notes: natural RNA segment, single round, ends assumed
Reference: no-protein control
Reading: higher = stronger binding
All sequences stand within: GGGAGUUCUACAGUCCGACGAUC … UGGAAUUCUCGGGUGCCAA
Residues (chain): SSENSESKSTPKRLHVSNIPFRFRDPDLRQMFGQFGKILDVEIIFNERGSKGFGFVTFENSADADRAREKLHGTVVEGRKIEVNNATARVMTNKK
Strand | RBNS enrichment (R)
AAUGUUAAAUUGUUUAUAUUUAAGUAAUUAGCUUAAAAAUAUAGUUUUAUGUUUUGUACAUUAAUUGAUUAAUAAAAUAAUAAUUUUAUGUGAGAAUGUUUUCAAAAAGC | 0.652
AGGGCAGAUCCACCGUGCCCUGGUUCCCCAGACAUUCCAGAAUGCCCCACAUCAUUGGCACAGGAGUGGGGCAGCCCCGGAAGGAACCAGGGAUUAGGCUGUAGGGGGGU | 0.543
CAGUUUAUGGAUAUGCUGCUUUAAACUUGGAAGGGGGAGACAGGAAGUUUUAAUUGUUCUGACUAAACUUAGGAGUUGAGCUAGGAGUGCGUUCAUGGUUUCUUCACUAA | 0.391
CAUGUGAUGUGAGACAGAAACCUAAACAUGGUACUUGAUUCUAAACCUGUGCCAGUCUAUAGCCUCUGCCUCCCCAAGCAGAGCUCAAGCCAAACGCUUCUGUCCUCUUU | 0.257
CUGGGCUUGGAUUUGCAUUACAUUGACCCCAGCCCUGCAGUGGAACCUAAUAAAAGCGCCUGAAGCACUGCCUGGUCCUGGUGUGUCCUUCCUGCGCACUCAACUGUUGU | 1.36
CUUCAAAUAUUCCAGUAAGUUUUGAAAUAAUGAAUGCAUUGAAAAUAGCAUUGUUGGAAUUUAUUCCCUUCUGUUUUAAAGGAGGUAUUUUGGAAAUUGAAAAACUUAAU | 2.05
AUCUUCAUUUUCUGACAGUCAAAGUGUGAAGGAACCCAGACUUCCCCGAGCCACGGUGUUCAGUCAGCCCACAGGAAUAUGCAAGACCCAUCUCCAAAAGUUUGUCUUUG | 0.363
CUAGAAAACACACUUCCUGCACCAACACCAAUACCCUUUCAAAAGAGUUGUCUGCAACAUUUUUGUUUUCUUUUUUAAUGUCCAAAAGUGGGGGAAAGUGCUAUUUCCUA | 0.482
AGUCAGCCUGGGCCCUUAGCCCAUGACUACCCUCCAGUGAGGCUCUGAGGCCUGGCUAGGGCCCUCCUGGGCAGAGCCCCUGCCUAGCCCUUCAGGCCUGAUGCCUCAGG | 0.19
CUCAGCUGGAUCAGGCAUCUACACACCCCAUUCUUCCAGGGGCCAGUGUCCACACCUGCAUGUAGGGAUUCGGUGUCCUGCUUAAUGCCUUCCCCUCUCGGGCUUCAUUC | 7.7
AGAAAUAAAGUGCAUGAACUGUUCUCUGCUAUAUCCUAGUCUCCCACACAGUGCGAGUCGGAGUGAGUCCCGCUGGUCCUGCCCAUGCAGGGCACAGAGCUGGCUCACCC | 27.3
GGUGCAUUCCUGUCCCCCUCGGCCCCAGGCUGGCUCAGCUCUCCAGUGCUGCGGCGCUGUCUUUGCAGCAUUGCCAUGUCACCGUAGCCCCCUUCACUCUUGGAAGUUUG | 0.349

Sample 5
Target: Sal-like protein 4, full length isoform A (SALL4, Homo sapiens, UniProt Q9UJQ4, residues 1-1053)
Sequence of UniProt Q9UJQ4 (whole entry, looked up): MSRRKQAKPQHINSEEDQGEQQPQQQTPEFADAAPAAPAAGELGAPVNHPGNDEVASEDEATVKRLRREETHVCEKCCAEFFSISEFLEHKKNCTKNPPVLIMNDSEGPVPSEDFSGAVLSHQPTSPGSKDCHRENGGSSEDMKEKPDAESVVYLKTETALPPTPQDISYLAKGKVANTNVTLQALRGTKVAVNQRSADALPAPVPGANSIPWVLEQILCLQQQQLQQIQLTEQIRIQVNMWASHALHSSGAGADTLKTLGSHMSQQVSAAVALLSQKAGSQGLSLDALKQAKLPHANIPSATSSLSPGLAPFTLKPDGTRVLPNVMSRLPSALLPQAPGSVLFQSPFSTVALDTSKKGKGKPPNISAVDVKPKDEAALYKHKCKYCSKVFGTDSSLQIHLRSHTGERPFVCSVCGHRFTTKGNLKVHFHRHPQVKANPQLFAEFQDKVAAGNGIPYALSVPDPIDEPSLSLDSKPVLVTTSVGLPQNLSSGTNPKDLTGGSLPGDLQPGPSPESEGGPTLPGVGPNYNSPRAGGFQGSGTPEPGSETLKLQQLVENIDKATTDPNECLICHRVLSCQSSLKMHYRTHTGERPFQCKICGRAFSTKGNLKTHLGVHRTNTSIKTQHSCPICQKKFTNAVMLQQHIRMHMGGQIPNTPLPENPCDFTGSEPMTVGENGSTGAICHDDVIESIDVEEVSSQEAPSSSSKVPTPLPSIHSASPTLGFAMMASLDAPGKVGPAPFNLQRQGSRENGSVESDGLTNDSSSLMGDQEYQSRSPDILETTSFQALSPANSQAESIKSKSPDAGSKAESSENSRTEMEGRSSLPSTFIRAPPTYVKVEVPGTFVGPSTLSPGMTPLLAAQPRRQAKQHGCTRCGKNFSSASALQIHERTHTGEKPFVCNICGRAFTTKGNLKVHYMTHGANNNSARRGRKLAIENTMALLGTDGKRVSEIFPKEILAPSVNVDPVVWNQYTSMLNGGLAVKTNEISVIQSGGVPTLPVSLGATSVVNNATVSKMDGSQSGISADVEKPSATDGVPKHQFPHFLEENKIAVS
Method: universal PBM
Molecule type: double-stranded DNA, one strand shown
Sample: in vitro
Concentration: 600 nM
Notes: 8-mer, flanks averaged, mean of replicates
Reading: higher = stronger binding
Strand | E-score
ATACTGTG | -0.0163
AAGGCCTC | -0.215
CGCTAGTA | 0.0144
ACCTTCCT | -0.151
TACAAGTA | 0.257
GCTCTCAA | -0.137
GCGAAACA | -0.0556
CTTAGCTA | 0.0898
GGGGAGAC | -0.296
AATAACCG | 0.214
GGACATTA | 0.181
CTGGGATA | 0.0671
ACGCGGCT | -0.121
AAAATCCC | 0.0922
CATGCTAA | 0.108
TCAGAAAA | 0.119
CCTGAGAG | -0.218
ACTATGAC | 0.216
ACTGCCCG | -0.2
GAGGGCAC | -0.265
GACACTCC | -0.156
CACATACA | 0.148

For quick reference, copied from above (sample 5):
Strand | E-score
ACTATGAC | 0.216
GGACATTA | 0.181
GACACTCC | -0.156
ATACTGTG | -0.0163
AAGGCCTC | -0.215
CTGGGATA | 0.0671
